Published values gathered from unrelated publications.
Numbered parts are unrelated; each lists some results of a single study. Positions count from the first letter of the parent shown.

Block 1 — method: RNA Bind-n-Seq; molecule type: RNA; sample: in vitro; tested at: 20 nM; setting: 6-mer, flanks averaged, single round; added: 150 mM KCl; relative to: input library; reading: higher = stronger binding
Target: TAR DNA-binding protein 43, full length, His tag (TARDBP, Homo sapiens, UniProt Q13148, residues 1-414)
Oligonucleotide | 6-mer enrichment (R)
AUGUUU | 0.774
UGCGGU | 1.36
CGUUAC | 0.588
UAGAGA | 0.859
UUAUGG | 0.867
UCCGUA | 0.598
AAUUUC | 0.578
CGUUCU | 0.55
AGCUUG | 0.775
GGUGUA | 1.42
CGCGAC | 0.84
GUGUAG | 1.45
AGUUCG | 0.723
ACAUGU | 0.666
ACCAGC | 0.724
AGUCGG | 1.36
UCUAGU | 0.6
CAAAAA | 0.717
AGCAUG | 0.973
ACAUGC | 0.674
AUCGAC | 0.604
GCCUCA | 0.676
AGCACG | 0.964
CUUUCA | 0.55

Block 2 — method: RNA Bind-n-Seq; molecule type: RNA; sample: in vitro; tested at: 365 nM; relative to: no-protein control; reading: higher = stronger binding
Target: RNA binding protein fox-1 homolog 2, RRM domain, GST-SBP tag (RBFOX2, Homo sapiens, UniProt O43251-10, residues 100-194)
Setting: natural RNA segment, single round, ends assumed
Shared flanks, not repeated: GGGAGUUCUACAGUCCGACGAUC … UGGAAUUCUCGGGUGCCAA
Residues (chain): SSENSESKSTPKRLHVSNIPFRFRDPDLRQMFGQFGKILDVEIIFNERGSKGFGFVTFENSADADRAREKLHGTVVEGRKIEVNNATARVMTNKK
Oligonucleotide | RBNS enrichment (R)
UUCAUAUUACAAAACAGUUUUACACUUAAUAUGUUAACAUUGGGUGCAAUAAUUUAGUAGCAUUAGCUUUAGUUACAAAUAUAACUGGAUCUUUCUGCUGACAACUUAGG | 0.31
AACUUGCUGUUUCCAAAAAGAAGGUGCAAUAUCAUAUACAUCAUUAGCAAUAUUAGCAUUUCAAUCAGCGAUCUGAGUGUUAGUUGUUUUUCCUUUACAUUUCUAGUAGU | 0.466
UCAGGAGUGUCCUAUGUGAGAAUUGAGCCAAGGAAAAUACUCAUGCAACCAGCCUGAGUCGCGGUGAGGGGACGAGAGGUUGUACACACAUUGGUAGUUAUUUUGCACCA | 0.902
GUAAGGUCCGAUUCCUACCAGGAAGUGCUUGCUGCUUCUUUGAUUAUGACUGGUUUGGGGUGGGGGGCAGUUUAUUUGUUGAGAGUGUGACCAAAAGUUACAUGUUUGCA | 6.11
UUCUAAAAUACCACAUUUCUGAAAUCAUAAAUAAGUUUAUUCAGGUUCUAACCCUUUGCUGUACACAAGCAGACAGAAAUGCAUCUGUUACAUAAAUGAGAAAAAGCUAU | 0.412
AGCUUUGGCUAGCUAAACAUGUUUAAUAAGGCCAUAAAAACUGAGAAAGAAAAACAUUCAACUUUAGCUGAAGCUCCUUUGAUACAAAAGUUUCAUUCUGUCAGAAAUAA | 0.328
ACCUCACUUUGGCCCGUCCCCCCUCCCAACACUUCUGUAUCCUCGCCCUGCCGCCCCAGCCUGGACGCUCUGCGUGGAAGUGCGUGUUUGUAGCAGCUCGGGCCUCAUCU | 0.333
UGACCUUUGCUGAGCUCAGUGACUCUUCAGUGUUAAAACUGAACCCCAGAGGGGAUUCUCCAUGCCAGAUCCGCUGCAAAUUAAAUAAUACCAAUUUUCUAGAGUCCCUC | 0.361
CAUCCCGGUCUCCAGAGACCCAGCUUCUGAGAGACAGGGUGUGGGCAUCUCCAUGCCCCUAUAAAGCGUGCCUGGGGCUUGUCUGGGGCUGGGGAGGAAUAAACCAUGUA | 0.902
CAUAUAUUUUCAGGUUCUGCCCACACUGUGAGGUUUUUCUAGAAUCACUGAGUUUCUGAUUUAGUAGUUUGUUCUGUAGAUCCCCAAAGCUGUGCUGUGUAUUGGUGGUU | 1.38
CCAGUGCCGUCCUGCUGAUGUGGUAGGCUAGCAAUAUUUUGGUUAAAAUCAUGUUUGUGACUGUAACCAUUUGUAUGAAUUAUUUUAAAGAAAUAAAAAUCCUGGAAAGA | 0.744
AAAAAGCACUUUUUCAAUUGUGCUGAGUUAGACAUCUGUGAGUUAGACUAUGGUGUCAGUGAUUUUUGCAGAACACGUGCACAACCCUGAGGUAUGUUUAAUCUAGGCAG | 0.529

Block 3 — method: DHFR PCA, deep sequencing; sample: yeast; added: (+)-ABA 0.0091 µM; relative to: wild-type fitted maximum; reading: higher = stronger binding
Target: ABI1, truncated, D143A, DHFR fusion (Arabidopsis thaliana)
Setting: methotrexate growth selection, single substitutions
Starting sequence: PYL1, truncated, DHFR fusion (Arabidopsis thaliana); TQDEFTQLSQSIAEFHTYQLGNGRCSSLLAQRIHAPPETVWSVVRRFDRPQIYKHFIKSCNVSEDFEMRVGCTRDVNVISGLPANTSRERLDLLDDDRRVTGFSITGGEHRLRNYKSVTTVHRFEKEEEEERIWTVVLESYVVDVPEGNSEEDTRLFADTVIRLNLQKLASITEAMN; partner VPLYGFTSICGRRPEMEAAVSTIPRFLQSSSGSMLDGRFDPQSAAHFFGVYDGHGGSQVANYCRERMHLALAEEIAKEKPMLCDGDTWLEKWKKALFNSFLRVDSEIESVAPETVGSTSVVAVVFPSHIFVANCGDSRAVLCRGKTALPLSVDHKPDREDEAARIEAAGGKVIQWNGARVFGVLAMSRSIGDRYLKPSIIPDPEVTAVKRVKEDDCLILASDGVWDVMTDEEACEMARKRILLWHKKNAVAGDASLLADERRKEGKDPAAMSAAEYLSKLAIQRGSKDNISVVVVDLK
Variant | relative binding score
E89K | -6.99%
Q19K | 33.7%
Q2C | 34.1%
D95P | -8.03%
R132L | 17.2%
F157E | -0.723%
K54V | -5.87%
G102H | -11.6%
Q31H | 5.99%
T160E | 16.4%
E147G | -2.17%
K126D | 56.8%
H16D | -0.21%
E174F | -0.871%

Block 4 — target: MAFK, bZIP domain (human); method: DHFR protein complementation; sample: yeast; relative to: wild-type JUN-FOS pair; reading: higher = stronger binding
Setting: single substitutions, most at no-binding floor
Starting sequence: JUN, bZIP domain (human); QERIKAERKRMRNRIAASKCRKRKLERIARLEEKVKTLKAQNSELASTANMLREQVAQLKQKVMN; partner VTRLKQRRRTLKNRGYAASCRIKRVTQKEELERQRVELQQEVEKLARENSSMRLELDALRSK
Variant | binding fitness [natural log]
Q41T | -1.47
M51K | -1.48
Q41P | -1.55
L38I | -1.39
E32D | -1.56
L45H | -1.48
R30N | -1.58
A29T | -1.52
M51G | -1.45
Q41L | -1.53
V56C | -1.51
E54I | -1.48

Block 5 — method: protein binding microarray; molecule type: double-stranded DNA, one strand shown; sample: in vitro; tested at: not given; relative to: not given; reading: higher = stronger binding
Target: Histone acetyltransferase KAT6A, winged helix 2, GST fusion (KAT6A, Homo sapiens, UniProt Q92794, residues 85-181)
Setting: 8-mer, flanks averaged, mean of 2 arrays, mostly near background
Construct (chain): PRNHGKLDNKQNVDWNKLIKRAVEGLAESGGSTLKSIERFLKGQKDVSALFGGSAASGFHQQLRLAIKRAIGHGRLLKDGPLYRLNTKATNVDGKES
Oligonucleotide | E-score
ACTATGCA | -0.072
GAGCGTGC | 0.113
CCGGGGTC | 0.166
ACATCTTC | -0.0502
GACCACGC | -0.061
GCTGGCAC | 0.0404
ATCTTTTA | 0.0206
CTTGGAGA | -0.0219
GTTAAGCA | -0.0496
CATGCTCC | -0.00183
ACAGCATG | -0.0207
ACGGAAAT | -0.0104
GAATGTCA | -0.12
CATATGGA | -0.139
ATTCGGTA | 0.074
AGCAATAC | -0.0591
ACTGACTA | -0.156
GGACGGCA | 0.19
CAGGTCGG | 0.123
CTCTTTGC | 0.0501
GATCTTTA | 0.167

Block 6 — method: competition protein-binding microarray; molecule type: double-stranded DNA, one strand shown; sample: in vitro; tested at: 2 µM; added: Pho4 competitor, 0.05 µM; reading: higher = stronger binding; shared flanks, not repeated: … GTCTTGATTCGCTTGACGCTGCTG
Target: Centromere-binding protein 1, full length, His-tagged (CBF1, Saccharomyces cerevisiae, UniProt P17106, residues 1-351)
UniProt P17106, sequence (whole entry, looked up): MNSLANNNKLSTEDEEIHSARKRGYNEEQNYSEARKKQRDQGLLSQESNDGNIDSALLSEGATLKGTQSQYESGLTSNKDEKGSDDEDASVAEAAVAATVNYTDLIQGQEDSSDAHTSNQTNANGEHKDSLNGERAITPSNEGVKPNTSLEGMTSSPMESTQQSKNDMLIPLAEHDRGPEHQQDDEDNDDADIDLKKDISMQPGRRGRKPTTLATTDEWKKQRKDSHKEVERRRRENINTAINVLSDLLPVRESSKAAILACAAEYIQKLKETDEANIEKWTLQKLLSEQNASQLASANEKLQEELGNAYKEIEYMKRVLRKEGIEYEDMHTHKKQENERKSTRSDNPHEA
Setting: whole 60-bp probe, lowest competitor level
Oligonucleotide | fluorescence intensity [a.u.]
ATTCTGGGATGCCCTGTCGTGGGTACAGTTGCCACA | 60.1
GAAAAGCTTATTTTTTTCGTGCAAACTCCGTTCTTA | 73
AGCGTTGAAGACAAATTCGTGACTCGTTGGTCCTAA | 88.8
CAACGGCGCCTCGGCCACGTTGAGTGAACCTTTGGC | 77.3
AAATTACTAAGTTGATATGTGGGTGACGCCGTATGA | 63.7
AAAGCGGTAATTTTTCACGTGCATTCACATATCTAT | 1100
CTACCACTCTGGAACGCCGTGACGGGCTCAGCCCCG | 49.5
TATTCAAGATCCTGCAACGTGCCAGGGACTCTCAAT | 100
CGTCCTAGTGATTGCGGGGTGGGTGCCATGAGGAAG | 101
CATACCCAACCTTGTCAAGTGGGTGAAGATATTTGT | 73.1
CATACCCAACCTTGTCACGTCACTTAAGATATTTGT | 139
AACTAAGAGAAATTGAACGTGGTCGCGATCTTTTAG | 90.4
CATACCCAACCTTGCCACGTGTTTTAAGATATTTGT | 1250
GTAGCTTCGCGGCAATGCCTGATCCGACAGCCGCAA | 44.5
ATTTCGCAAGGAGCGGGCGTGCGATGTTAACGTCAA | 63.7
TCAACACTTCACCAACACGTGTCGGGGACCGCTTCA | 713

Block 7 — target: CCNA2, cyclin fold, Cln2 fusion (human); method: yeast growth competition, sequencing; sample: yeast; setting: weak parent motif; relative to: not given; reading: higher = stronger binding
Starting sequence: WEE2 docking peptide (human); KELRQKLNFSYCE
Variant | normalised enrichment score
E13A | 1.04
Y11A | 1.16
K1A | 0.518
Q5A | 0.681
C12A | 0.579
S10A | 0.63
